Results collected from several papers.
Numbers after ± are the reported error.

Compound	assay	test system	conditions	scale	measurement	value
Cc1cc(-c2ccc(NC(=O)[C@H](CCCCNC(=O)CCOCCOCCC(=O)N[C@H](Cc3ccccc3)C(=O)N[C@H]3CSSC[C@@H](C(=O)N[C@H](C(=O)O)[C@@H](C)O)NC(=O)[C@H]([C@@H](C)O)NC(=O)[C@H](CCCCN)NC(=O)[C@@H](Cc4c[nH]c5ccccc45)NC(=O)[C@H](Cc4ccc(O)cc4)NC3=O)NC(=O)CN3CCN(CC(=O)O)CCN(CC(=O)O)CCN(CC(=O)O)CC3)c(C)c2)ccc1N=Nc1ccc2c(S(=O)(=O)O)cc(S(=O)(=O)O)c(N)c2c1O [lutetium-177 labelled]	–	human metastatic neuroendocrine tumour	dose not given	–	grade 1-2 haematologic adverse events	58%
N=C(N)NCCC[C@@H]1NC(=O)[C@H](CCCCNC(=O)CC[C@H](NC(=O)CC[C@H](NC(=O)CN2CCN(CC(=O)O)CCN(CC(=O)O)CCN(CC(=O)O)CC2)C(=O)N[C@@H](CCC(=O)NCCCC[C@@H]2NC(=O)[C@@H](Cc3ccccc3)NC(=O)[C@H](CC(=O)O)NC(=O)CNC(=O)[C@H](CCCNC(=N)N)NC2=O)C(=O)NCCCC[C@@H]2NC(=O)[C@@H](Cc3ccccc3)NC(=O)[C@H](CC(=O)O)NC(=O)CNC(=O)[C@H](CCCNC(=N)N)NC2=O)C(=O)NCCCC[C@@H]2NC(=O)[C@@H](Cc3ccccc3)NC(=O)[C@H](CC(=O)O)NC(=O)CNC(=O)[C@H](CCCNC(=N)N)NC2=O)NC(=O)[C@@H](Cc2ccccc2)NC(=O)[C@H](CC(=O)O)NC(=O)CNC1=O [indium-111 labelled]	–	female athymic nu/nu mice, kidney	intravenous, 0.5 h	–	tissue uptake	11.2 ± 1.22 %ID/g
CCCC[C@H](NC(=O)CNC(=O)CNC(=O)CN1CCN(CC(=O)O)CCN(CC(=O)O)CC1)C(=O)N[C@H]1CC(=O)NCCCC[C@@H](C(N)=O)NC(=O)[C@H](Cc2c[nH]c3ccccc23)NC(=O)[C@H](CCCNC(=N)N)NC(=O)[C@@H](Cc2ccccc2)NC(=O)[C@H](Cc2c[nH]cn2)NC1=O [technetium-99m labelled]	–	C57 mouse, liver	iv, 0.037 MBq, 0.5 h	–	tissue uptake	2.32 ± 0.2 %ID/g
C[C@H](NC(=O)CNC(=O)[C@H](CCC(=O)O)NC(=O)[C@H](CCC(=O)O)NC(=O)[C@H](CC(=O)O)NC(=O)[C@@H]1CCCN1C(=O)[C@H](Cc1ccccc1)NC(=O)[C@H](CS)NC(=O)[C@H](Cc1ccc(O)cc1)NC(=O)CCCNC(=O)CNC(=O)CNC(=O)[C@@H](C)NC(=O)CN)C(=O)N[C@@H](CS)C(=O)N[C@@H](Cc1ccc(O)cc1)C(N)=O [technetium-99m labelled]	paper chromatography	sealed vial	6 h, room temperature	–	radiochemical purity	93.25 ± 0.06%
Cc1cc(-c2ccc(NC(=O)[C@H](CCCCNC(=O)CCN3C(=O)CC(SCCC(=O)N[C@H](Cc4ccccc4)C(=O)N[C@H]4CSSC[C@@H](C(=O)N[C@H](C(=O)O)[C@@H](C)O)NC(=O)[C@H]([C@@H](C)O)NC(=O)[C@H](CCCCN)NC(=O)[C@@H](Cc5c[nH]c6ccccc56)NC(=O)[C@H](Cc5ccc(O)cc5)NC4=O)C3=O)NC(=O)CN3CCN(CC(=O)O)CCN(CC(=O)O)CCN(CC(=O)O)CC3)c(C)c2)ccc1N=Nc1ccc2c(S(=O)(=O)O)cc(S(=O)(=O)O)c(N)c2c1O (stereo partly shown) [gallium-68 labelled]	radio-HPLC	glutathione solution and urine	2 h	–	radiochemical purity	decreased
CCCCCC(=O)N[C@H]1CSCc2cc(CSCCNC(=O)CCCCCNC(=O)CC[C@H](NC(=O)CCC(C(=O)O)N3CCN(CC(=O)O)CCN(CC(=O)O)CCN(CC(=O)O)CC3)C(=O)NCCCOc3ccc4nccc(C(=O)NCC(=O)N5CC(F)(F)C[C@H]5C#N)c4c3)cc(c2)CSC[C@@H](C(=O)O)NC(=O)[C@H](Cc2ccccc2)NC(=O)[C@H](CCC(N)=O)NC(=O)[C@H]([C@@H](C)O)NC(=O)[C@@H]2CCCN2C(=O)[C@@H]2CCCN2C1=O (stereo partly shown)	–	PBS	2 h, 37 °C	–	radiochemical purity	> 95%
N=C(N)NCCC[C@@H]1NC(=O)[C@H](CCCCNC(=O)CNC(=O)CNC(=O)CNC(=O)CC[C@H](NC(=O)CNC(=O)CNC(=O)CNC(=O)CC[C@H](NC(=O)CN2CCN(CC(=O)O)CCN(CC(=O)O)CCN(CC(=O)O)CC2)C(=O)NCC(=O)NCC(=O)NCC(=O)N[C@@H](CCC(=O)NCC(=O)NCC(=O)NCC(=O)NCCCC[C@@H]2NC(=O)[C@@H](Cc3ccccc3)NC(=O)[C@H](CC(=O)O)NC(=O)CNC(=O)[C@H](CCCNC(=N)N)NC2=O)C(=O)NCC(=O)NCC(=O)NCC(=O)NCCCC[C@@H]2NC(=O)[C@@H](Cc3ccccc3)NC(=O)[C@H](CC(=O)O)NC(=O)CNC(=O)[C@H](CCCNC(=N)N)NC2=O)C(=O)NCC(=O)NCC(=O)NCC(=O)NCCCC[C@@H]2NC(=O)[C@@H](Cc3ccccc3)NC(=O)[C@H](CC(=O)O)NC(=O)CNC(=O)[C@H](CCCNC(=N)N)NC2=O)NC(=O)[C@@H](Cc2ccccc2)NC(=O)[C@H](CC(=O)O)NC(=O)CNC1=O [indium-111 labelled]	–	female athymic nu/nu mice, liver	intravenous, 0.5 h	–	tissue uptake	3.04 ± 1.38 %ID/g
CC(C)C[C@@H](NC(=O)[C@@H](CC(C)C)NC(=O)[C@@H](CC(=O)O)NC(=O)[C@@H](CC(C)C)NC(=O)[C@@H](CC(C)C)NC(=O)[C@@H](CC(C)C)NC(=O)[C@H](NC(=O)[C@@H](CC(=O)O)NC(=O)[C@H](NC(=O)[C@H]1CCCN1C(=O)[C@@H](Cc1ccccc1)NC(=O)[C@@H](CC(C)C)NC(=O)[C@@H](CC(C)C)NC(=O)[C@@H](CC(=O)O)NC(=O)[C@@H](CC(C)C)NC(=O)[C@@H](Cc1ccc(O)cc1)NC(=O)[C@@H](C)NC(=O)[C@@H](CCCNC(=N)N)NC(=O)[C@@H](Cc1c[nH]c2ccccc12)NC(=O)[C@H]1CCCN1C(=O)[C@@H](CC(N)=O)NC(=O)[C@@H](CCC(N)=O)NC(=O)[C@@H](CC(=O)O)NC(=O)[C@@H](CC(=O)O)NC(=O)[C@@H](CSC1CC(=O)N(CCNC(=O)CN2CCN(CC(=O)O)CCN(CC(=O)O)CC2)C1=O)NC(=O)[C@@H](C)N)[C@H](C)O)[C@H](C)O)C(=O)N[C@H](Cc1c[nH]c2ccccc12)C(=O)O (stereo partly shown) [fluorine-18 labelled]	–	male nude mice, LNCaP xenograft	intravenous, 4 h	relative to: tumour over muscle	tumour-to-muscle ratio	4.7 ± 0.9
N=C(N)NCCC[C@@H]1NC(=O)[C@H](CCCCNC(=O)CNC(=O)CNC(=O)CNC(=O)CC[C@H](NC(=O)CNC(=O)CNC(=O)CNC(=O)CN2CCN(CC(=O)O)CCN(CC(=O)O)CCN(CC(=O)O)CC2)C(=O)NCC(=O)NCC(=O)NCC(=O)NCCCC[C@@H]2NC(=O)[C@@H](Cc3ccccc3)NC(=O)[C@H](CC(=O)O)NC(=O)CNC(=O)[C@H](CCCNC(=N)N)NC2=O)NC(=O)[C@@H](Cc2ccccc2)NC(=O)[C@H](CC(=O)O)NC(=O)CNC1=O [indium-111 labelled]	–	female athymic nu/nu mice, kidney	intravenous, 0.5 h	–	tissue uptake	6.74 ± 0.79 %ID/g
CCCC[C@H](NC(=O)CNC(=O)CNC(=O)CN1CCN(CC(=O)O)CCN(CC(=O)O)CCN(CC(=O)O)CC1)C(=O)N[C@H]1CC(=O)NCCCC[C@@H](C(N)=O)NC(=O)[C@H](Cc2c[nH]c3ccccc23)NC(=O)[C@H](CCCNC(=N)N)NC(=O)[C@@H](Cc2ccccc2)NC(=O)[C@H](Cc2c[nH]cn2)NC1=O [lutetium-177 labelled]	–	C57 mouse, female, whole blood	intravenous, 0.037 MBq, 24 h	–	tissue uptake	0.23 ± 0.41 %ID/g
CCCC[C@H](NC(=O)CCCCCCCNC(=O)CN1CCN(CC(=O)O)CCN(CC(=O)O)CC1)C(=O)N[C@H]1CC(=O)NCCCC[C@@H](C(N)=O)NC(=O)[C@H](Cc2c[nH]c3ccccc23)NC(=O)[C@H](CCCNC(=N)N)NC(=O)[C@@H](Cc2ccccc2)NC(=O)[C@H](Cc2c[nH]cn2)NC1=O [copper-64 labelled]	–	C57 mice, muscle	intravenous, 0.37 MBq, 24 h	–	tissue uptake	0.08 ± 0.02 %ID/g
COc1ccc2cc([C@H](C)C(=O)N[C@H](Cc3ccccc3)C(=O)N[C@H](Cc3ccccc3)C(=O)O)ccc2c1	TEM	hydrogel 0.8 wt%	–	–	nanofiber width	54 ± 7 nm
CC(C)C[C@@H]1NC(=O)[C@H]([C@@H](C)O)NC(=O)[C@H](Cc2ccccc2)NC(=O)CNC(=O)[C@H](Cc2c[nH]c3ccccc23)NC(=O)[C@H](Cc2c[nH]cn2)NC(=O)[C@H](C)NC(=O)[C@@H](NC(=O)[C@H](CCCCNC(=O)CCCCCN2C(=CC=C3CCCC(C=CC4=[N+](CCCCS(=O)(=O)[O-])c5ccc(S(=O)(=O)O)cc5C4(C)C)=C3Oc3ccc(S(=O)(=O)O)cc3)C(C)(C)c3cc(S(=O)(=O)O)ccc32)NC(=O)CN2CCN(CC(=O)O)CCN(CC(=O)O)CCN(CC(=O)O)CC2)CCCCNC(=O)C[C@@H](C(N)=O)NC1=O [gallium-68 labelled]	radio-HPLC	PBS	3 h, room temperature	–	radiochemical purity	> 95%
